Values quoted from earlier work, collected from citations in different studies.
Chain of UniProt P14416 (whole entry, looked up): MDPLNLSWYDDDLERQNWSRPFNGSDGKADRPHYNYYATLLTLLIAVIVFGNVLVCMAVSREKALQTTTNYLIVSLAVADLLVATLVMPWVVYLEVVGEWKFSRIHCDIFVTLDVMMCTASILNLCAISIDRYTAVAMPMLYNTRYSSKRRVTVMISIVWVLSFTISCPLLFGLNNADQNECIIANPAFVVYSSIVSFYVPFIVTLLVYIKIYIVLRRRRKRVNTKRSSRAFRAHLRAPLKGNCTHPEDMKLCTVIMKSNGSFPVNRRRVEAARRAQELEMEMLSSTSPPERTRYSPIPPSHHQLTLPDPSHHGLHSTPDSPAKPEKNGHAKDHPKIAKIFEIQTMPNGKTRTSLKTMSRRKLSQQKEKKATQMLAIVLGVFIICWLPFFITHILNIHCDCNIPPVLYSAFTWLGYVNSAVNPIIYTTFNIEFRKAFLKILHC
Chain of UniProt P21917 (whole entry, looked up): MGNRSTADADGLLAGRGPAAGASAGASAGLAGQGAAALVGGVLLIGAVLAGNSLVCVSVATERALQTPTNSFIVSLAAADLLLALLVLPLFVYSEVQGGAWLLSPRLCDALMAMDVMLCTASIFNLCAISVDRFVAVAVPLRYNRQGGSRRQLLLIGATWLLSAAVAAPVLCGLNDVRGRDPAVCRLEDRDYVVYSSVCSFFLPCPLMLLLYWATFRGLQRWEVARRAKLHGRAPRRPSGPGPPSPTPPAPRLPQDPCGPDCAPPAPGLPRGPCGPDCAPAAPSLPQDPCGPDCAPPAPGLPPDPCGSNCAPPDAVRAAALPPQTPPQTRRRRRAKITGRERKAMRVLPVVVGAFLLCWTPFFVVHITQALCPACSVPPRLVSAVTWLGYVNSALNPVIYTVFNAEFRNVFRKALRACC

| Substance | tested on | assay | test system | setting | how to read | endpoint | result |
| --- | --- | --- | --- | --- | --- | --- | --- |
| CCCCCCCCCCCCOC(=O)O[C@H]1CC[C@H]2[C@@H]3CCC4=CC(=O)CC[C@@H]4[C@H]3[C@@H](C)C[C@]12C |  | refers to: plasma LH | castrated adult rat | subcutaneous, 12 mg/kg single |  | duration of LH suppression | ≥ 10 weeks |
| C=CCN(CC=C)CCc1c[nH]c2ccccc12 | DRD2 (Homo sapiens, UniProt P14416) | binding | cloned human receptor | added: [3H]N-methylspiperone |  | Ki | > 10 µM |
| CCCC(C(=O)c1ccc2c(c1)OCO2)N1CCCC1.Cl (racemic) |  | ICSS facilitation | rat |  | relative to: cocaine | relative potency | ~3 fold |
| ibogaine |  |  | human | single treatment, neurological and mental scales |  | response rate | > 90% |
| CC[C@@H]1CN2CCc3c([nH]c4cccc(OC)c34)[C@@H]2C[C@@H]1/C(=C\OC)C(=O)OC |  |  | MOR knockout mouse C57BL/6J | oral, 45 mg/kg | relative to: wild type | antinociception | decreased |
| N[C@@]1(c2ccccc2Cl)CCC[C@@H](O)C1=O |  |  | Wistar rat | dose not given, locomotor activity during recovery |  | general anaesthetic activity | inactive |
| C=CCN(CC=C)CCc1c[nH]c2ccc(F)cc12 | DRD4 (Homo sapiens, UniProt P21917) |  |  |  |  | Ki | > 10 µM |
| O=C(O)CCCO |  |  | baboon | 420 mg/kg, first 2 h | relative to: vehicle | food-maintained responding | decreased |
| CCCCCc1cc(O)c2c(c1)OC(C)(C)[C@@H]1CC=C(C)C[C@@H]21 |  |  | rabbit alpha-chymotrypsin glaucoma model | topical, 50 µL of 0.4% w/v, submicron emulsion |  | duration of IOP decrease | ≤ 8 h |
| CCN(C(=O)[C@@H]1C=C2c3cccc4[nH]cc(c34)C[C@H]2N(C)C1)C(C)C |  | drug discrimination | rat | full substitution, added: LSD 0.08 mg/kg training drug | relative to: LSD | relative potency | 36% |

Repeated from above:
| Substance | tested on | assay | test system | setting | how to read | endpoint | result |
| --- | --- | --- | --- | --- | --- | --- | --- |
| O=C(O)CCCO |  |  | baboon | 420 mg/kg, first 2 h | relative to: vehicle | food-maintained responding | decreased |
